# Assay results of several laboratories.
# Every numbered part comes from another study and shows a few of its results, in no order. Several values in a cell are separate wells, animals, samples, runs or records.

# Set 1
# Target: RING finger protein unkempt homolog, zinc fingers 1-6, GST-SBP tag (UNK, Homo sapiens, UniProt Q9C0B0, residues 30-357)
# Method: RNA Bind-n-Seq
# Form: RNA
# Sample: in vitro
# Concentration: not given
# Setting: RNA with constant flanks, human and mouse sites, ends assumed
# Relative to: input RNA pool
# Direction: higher = stronger binding
# Shared flanks, not repeated: GGGAGUUCUACAGUCCGACGAUC … CAACAGAGGAUUGAGCAUCA
# Target sequence (chain): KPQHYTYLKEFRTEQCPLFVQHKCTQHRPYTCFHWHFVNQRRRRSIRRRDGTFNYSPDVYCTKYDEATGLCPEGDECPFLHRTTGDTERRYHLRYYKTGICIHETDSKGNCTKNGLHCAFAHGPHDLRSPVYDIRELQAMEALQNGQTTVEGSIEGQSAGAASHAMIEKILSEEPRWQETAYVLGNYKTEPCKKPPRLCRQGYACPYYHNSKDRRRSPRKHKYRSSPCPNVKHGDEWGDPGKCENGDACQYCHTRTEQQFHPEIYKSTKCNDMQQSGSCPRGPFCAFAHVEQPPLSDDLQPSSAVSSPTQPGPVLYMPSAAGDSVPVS
Strand,bound/input enrichment [ratio]
UCUCUGAUGCAAUGUGCAGGAGAAAGUAUCUCUCUGUUUAAAAAUAAAACAAAUGAGGAAUCAAGAAUUGGUUCAUUGAGAAAUGUGAUGCAUCUGUGUACAAGUUGCUUGUGUAUACAU,0.221
CACAGAGGAGACCUCCUGUUCCUCACAAAUUUCCGGGAAGACCCAAUCAGAGCUGGUGAAAUAGUUGUUUUUAAAGUUGAAGGACGAGACAUUCCAAUAGUUCACAGAGUAAUCAAAGUU,3.82
UUUGCUGAACUGGACAAAGUGAUGGGCCCUCUCAUCUUUAAUGCAAGCAUCAUGACAGAUCUGGCUCGUUACACCCGGCAGGGACUGCAUUGGCUUCGGCAGGAUGCCAAGCUGAUAUCU,0.141
AUGGACGUCACCGAGGAUGAAGAGGAAGAAAUCAAACUGGAGAUAAAUAUGCUGAAGAAGUAUUCUCAUCAUCGAAAUAUUGCCACGUACUAUGGUGCUUUCAUUAAGAAGAGCCCUCCA,0.316
GAGAGCUGCCUGGUGUCAGGUAGAGAGGACACUGUACCUGGGUGAAUGAUCAGACCCUGGUAGCUAAGAAGGAACUUGUCCCUUUGAGUCAGUGUGCAGACCCCCUUUCAGGCCAUGCCU,0.0864
UUUAUUUCAGGGAAAUAAUUUUCCAGUUGUUUUGCUAUAUUCUGCAAAUAAAAACCGUGUUUCCUUUUUUCACUUAAACUUUGGUAGGAAACAAACUAAAGCAGACAAACAUUUCUUGUU,0.245
UUAAAAAAGAAUCCUUUGGGCCAGUGAAUAAAACAGGGCAAAUUUUAGUUAGAAAUUUAGAUAGAAAAUAUACACUUGCAACUUUCCUAGUGUCUCUGAGUCUGCAGCAGUCACUAUAGC,81.3
AGGUUCUGGCUGAUAGACUGUCGACAGAUUCAGGAGUCUGUUGCCUUUGCAUCACAAGUGUAUAGAGAAAUUAUCUGUGUGCCAUAUAUGGCCAAAUUUGUAGUGUUUGCCAAGUCACAU,0.844
UACGACAGGGUUUCCAAGAAGGAAGCCAAGCCGCAGAUUUGUCAGCUGCCAGAGAGUUCAGAUUCUUCACAUUCUGAAAGUGAAUCAGAGAGUGAACAAGAGCACGUUUCAGGGUACCAC,0.0801
UAAACAUCUCACAUAUGAAAAUGUAGAGCGAUGGCUGAAAGAACUGAGAGAUCAUGCUGAUAGUAACAUUGUUAUCAUGCUUGUGGGCAAUAAGAGUGAUCUACGUCAUCUCAGGGCAGU,0.193
GUGCUUCAUAUCAGCUCUCUUCUUGCAUGGACACUACUGCUGACCAUAUGCCCAAUCAAUGAAGUGAAGAAAAAGCUUGAGAUGCAUUUCCAUAAGCUUCCAAGCCUCCUCUCUUGUGAU,0.115

# Set 2
# Target: Ras GTPase-activating protein-binding protein 1, full length (G3BP1, Homo sapiens, UniProt Q13283)
# Sequence of UniProt Q13283 (whole entry, looked up): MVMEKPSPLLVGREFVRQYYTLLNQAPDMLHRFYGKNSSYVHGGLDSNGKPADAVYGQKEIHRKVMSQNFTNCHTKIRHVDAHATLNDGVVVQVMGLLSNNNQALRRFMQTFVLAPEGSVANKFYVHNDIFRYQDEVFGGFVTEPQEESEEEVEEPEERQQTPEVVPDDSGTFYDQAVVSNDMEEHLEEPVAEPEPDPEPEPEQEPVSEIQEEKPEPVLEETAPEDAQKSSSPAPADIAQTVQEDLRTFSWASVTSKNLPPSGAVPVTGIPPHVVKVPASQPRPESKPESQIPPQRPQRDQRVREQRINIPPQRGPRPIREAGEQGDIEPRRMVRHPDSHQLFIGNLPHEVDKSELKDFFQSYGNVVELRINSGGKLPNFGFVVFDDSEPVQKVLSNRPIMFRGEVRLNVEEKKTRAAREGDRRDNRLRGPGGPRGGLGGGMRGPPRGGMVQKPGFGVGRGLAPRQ
# Method: RNA Bind-n-Seq
# Form: RNA
# Sample: in vitro
# Concentration: 200 nM
# Setting: whole 134-nt RNA, ends assumed
# With: 150 mM KCl
# Relative to: input library
# Direction: higher = stronger binding
# Shared flanks, not repeated: GGGAGUUCUACAGUCCGACGAUC … UGGAAUUCUCGGGUGUCAAGG
Strand,log2 enrichment
UCCUGUGCUACACAUCGUAUGUACCGAAUCAAAUUUAAAUUUUUUUAAAUUUUUUUAAAAAAGUAUUAUGUUACGCCGUUCGGAUCUGCA,-0.763
GCAGGAAGUAAAAACAAAUGUAAAUGCUUCGGAUAGUGGCAGGGGUGGGGGUUGCUAAGGAAAGGGUGGGAUGGGAGUGGGUAAAGAGUU,1.02
CCCUGUGGGCCUUGCUCAGAGCGGAGAAAGCAUUUGUUUGUACAAGAUCCGCAGACGUGUAAAUGUUCCUGCAAAAACACAGACUCGCGU,-1.07
UCAAGUCCUGUGCUACACAUCGUAUGUACCGAAUCGGAAAGGUUUUUGGAAAGGAAAGUAUUAUGUUACGCCGUUCGGAUCUGCACUUCC,-1.18
ACCAUGCAGGUGGGCAUCUUUGGGAAGUGGGGCAAGGGGGGGAUAGGGAGGGGAAAAACACUUUGGGAACAGGUGGUCCCAGGUCGUUUC,1.17
CUGUGCUACACAUCGUAUGUACCGAAUCGGGCCCCCCCGGGCCCCCCCGGCCCCCCCGGGGAAAGUAUUAUGUUACGCCGUUCGGAUCUG,-0.809
UCCUGUGCUACACAUCGUAUGUACCGAAUCGGAAAAAAGGGGAAAAAAGGAAAAAAGGGAAAGUAUUAUGUUACGCCGUUCGGAUCUGCA,-0.785
UUGAUGUUAGUAAAUUUGGUGUAAUACGUGGGGCUUCCAUAUUUCAAAGUGGAAGCUUUCUUCUCUGAAGUCGAUAUAUGGUUUUGAAUU,-0.878
ACCAUGCAGGUGGGCAUCUUUGGGAAGUGGGGCAAGGGGGGGAUAGGGAGGGGGGGAACACUUUGGGAACAGGUGGUCCCAGGUCGUUUC,1.51
ACCAUGCAGGUGGGCAUCUUUGGGAAGUGGGGCAAGGGGGGGAUAGGGAGGGGGGUAACACUUUGGGAACAGGUCGUCCCAGGUCGUUUC,1.15
UCCUGUGCUACACAUCGUAUGUACCGAAUCGGGGUUUUUGGGGUUUUUGGGGUUUUUGGAAAGUAUUAUGUUACGCCGUUCGGAUCUGCA,0.0673
UCCUCAAGUCCUGUGCUACACAUCGUAUGUACCGAAUCGGCGGGCGGGGCGGAAAGUAUUAUGUUACGCCGUUCGGAUCUGCACUUCCAG,0.215
GGUGGACUAUGGUGCAACAGCAGAAGAGCUGGAAGCUCACUUUCAUGGCUGUGGUUCAGUCAACCGUGUUACCAUACUGUGUGACAAAUU,-1.25
CCUGUGCUACACAUCGUAUGUACCGAAUCGGGCCCCCCCGGCCCCCCCGGCCCCCCCGGGAAAGUAUUAUGUUACGCCGUUCGGAUCUGC,0.282

# Set 3
# Target: Interferon regulatory factor 7, full length, phosphomimetic (IRF7, Homo sapiens, UniProt Q92985, residues 1-503, S471D/S472D/S475D/S476D/S477D/S483D/S484D/S487D)
# Sequence of UniProt Q92985 (whole entry, unmodified, looked up): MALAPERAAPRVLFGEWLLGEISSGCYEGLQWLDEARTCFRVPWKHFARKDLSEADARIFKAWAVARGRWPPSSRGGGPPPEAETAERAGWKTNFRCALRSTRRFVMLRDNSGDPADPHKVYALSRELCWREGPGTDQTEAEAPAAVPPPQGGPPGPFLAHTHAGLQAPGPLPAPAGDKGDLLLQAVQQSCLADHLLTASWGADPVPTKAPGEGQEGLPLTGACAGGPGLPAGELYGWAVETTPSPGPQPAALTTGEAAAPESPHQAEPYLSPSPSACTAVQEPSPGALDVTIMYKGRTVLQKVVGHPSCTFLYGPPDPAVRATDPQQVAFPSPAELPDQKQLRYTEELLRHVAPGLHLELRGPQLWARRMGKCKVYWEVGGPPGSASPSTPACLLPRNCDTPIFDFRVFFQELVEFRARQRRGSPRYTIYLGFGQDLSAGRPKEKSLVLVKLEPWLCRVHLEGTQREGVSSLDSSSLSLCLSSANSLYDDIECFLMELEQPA
# Method: protein-binding microarray
# Form: double-stranded DNA, one strand shown
# Sample: in vitro
# Concentration: 2200 nM top
# Setting: 60-bp whole probe
# With: salmon DNA 0.4 mg/ml
# Relative to: random background probes
# Direction: higher = stronger binding
# Shared flanks, not repeated: GCCTAGCAC … GTCTTGATTCGCTTGACGCTGCTG
Strand,fitted relative affinity [z-score]
GATAATTTATAAATAAAAAAGTGCTAG,-1.45
TTCGGTATCGACACTGGGTTAGTGCTA,0.711
TTAGATATAGGGACTGGATTAGTGCTA,-0.818
GACGGTATCGGTCTGGGGACGTGCTAG,-0.0505
TTAGGACTGGGGAATGGGTTAGTGCTA,-0.846
TTAGATATCCGTCTCGATTAGTGCTAG,0.512
GACGGACTGAGTCTCGAGACGTGCTAG,-0.376
GACTATATCGGGTATCGAGACGTGCTA,0.32

# Other studies, line by line
Molecule,target,assay,system,conditions,how to read,measurement,value
"PhoQ, residues 284 288 289 292 302 303 ASTSDA","PhoP, residues 12 14 15 18 19 LWHSL (Escherichia coli, UniProt P23836)","Sort-seq, measured: YFP reporter",E. coli,"PhoQ-PhoP variant library, with: 10 µM Mg2+","relative to: high Mg2+ state, higher = stronger signaling",fold induction,16.2 and 20.6

# For quick reference, copied from above (set 1):
Strand,bound/input enrichment [ratio]
UUUAUUUCAGGGAAAUAAUUUUCCAGUUGUUUUGCUAUAUUCUGCAAAUAAAAACCGUGUUUCCUUUUUUCACUUAAACUUUGGUAGGAAACAAACUAAAGCAGACAAACAUUUCUUGUU,0.245
GUGCUUCAUAUCAGCUCUCUUCUUGCAUGGACACUACUGCUGACCAUAUGCCCAAUCAAUGAAGUGAAGAAAAAGCUUGAGAUGCAUUUCCAUAAGCUUCCAAGCCUCCUCUCUUGUGAU,0.115
UUUGCUGAACUGGACAAAGUGAUGGGCCCUCUCAUCUUUAAUGCAAGCAUCAUGACAGAUCUGGCUCGUUACACCCGGCAGGGACUGCAUUGGCUUCGGCAGGAUGCCAAGCUGAUAUCU,0.141
GAGAGCUGCCUGGUGUCAGGUAGAGAGGACACUGUACCUGGGUGAAUGAUCAGACCCUGGUAGCUAAGAAGGAACUUGUCCCUUUGAGUCAGUGUGCAGACCCCCUUUCAGGCCAUGCCU,0.0864
AGGUUCUGGCUGAUAGACUGUCGACAGAUUCAGGAGUCUGUUGCCUUUGCAUCACAAGUGUAUAGAGAAAUUAUCUGUGUGCCAUAUAUGGCCAAAUUUGUAGUGUUUGCCAAGUCACAU,0.844
